Measurements from different studies.
Each line is one published result; not all experiments were run side by side. “And” joins repeats or separate records; there may be more than shown. ± gives the spread as reported.
Cell line: HepG2

Compound	test	setting	how to read	measurement	result
CC(=O)c1sc(=NN=C(C)c2c(O)c3ccccc3oc2=O)[nH]c1C	cell growth, MTT	–	baseline: IC50 BJ-1 over HepG2	selectivity index	> 2.05
CCC1=C(C)/C(=C/NC23C[C@H]4C[C@@H](C2)C[C@](C)(C4)C3)N=C1c1ccc(C)[nH]1	–	–	baseline: HepG2 IC50 over P. falciparum D6 IC50	selectivity index	11500
Cc1nc2ccccc2n(CC(=O)Nc2ccc(C(=O)Nc3cccc(Cl)c3)cc2)c1=O	Annexin V-FITC/PI staining	2.3 µM	–	necrotic cells	0.2 ± 0.04%
CC(=O)Nc1ccc(/C(C)=N/N=c2\sc(C(C)=O)nn2-c2ccc(C)cc2)cc1	MTT	0.625 µM	–	cytotoxicity	0.182%
CCOc1nc(-c2cccc(O)c2)cc(-c2cc3ccccc3nc2N2CCOCC2)c1C#N	MTT	–	baseline: WI-38 EC50 over HepG2 IC50	selectivity ratio	0.288
CN(CCOc1ccc(CC2SC(=O)NC2=O)cc1)c1ccccn1 (centres unmarked)	TMRE, item: mitochondrial membrane potential	24 h, distribution mode 2	–	point of departure	56.2 µM
CCOC(=O)c1nn(-c2cccc(Cl)c2)/c(=N/N=C(\C)c2ccc(NC(=O)c3ccc(Cl)cc3)cc2)s1	MTT	5 µM	–	cytotoxicity	97.4%
CC(=NN=c1[nH]c(C)c(N=Nc2ccc(C)cc2)s1)c1c(O)c2ccccc2oc1=O	cell growth, MTT	–	baseline: IC50 BJ-1 over HepG2	selectivity index	> 1.75
CC(=O)c1nn(-c2ccc(Cl)cc2)/c(=N/N=C(\C)c2ccc(NC(=O)c3ccc(C)cc3)cc2)s1	–	0.156 µM	–	viability	45.2%
CC(C)(C)c1cc(O)ccc1O	extracellular flux, item: oxygen consumption rate	24 h, representative mode	–	point of departure	162 µM
CC(=NN=c1sc(N=Nc2ccc(C)cc2)c(C)n1C)c1c(O)c2ccccc2oc1=O	cell growth, MTT	–	baseline: IC50 BJ-1 over HepG2	selectivity index	> 1.34
CCOC(=O)c1nn(-c2cccc(Cl)c2)/c(=N/N=C(\C)c2ccc(NC(=O)c3ccccc3)cc2)s1	MTT	0.078 µM	–	cytotoxicity	18.1%
O=C(O)Cc1ccccc1Nc1c(Cl)cccc1Cl	item: HIF1alpha level	6 h, mode 1 of PoD distribution	–	point of departure	32.4 µM
COc1cnc2cccc(N3CCc4c(cc(Cn5ccnc5C)cc4-c4cn(C)nc4C(F)(F)F)C3=O)c2c1	cell growth, inhibitor	120 h	–	EC50	4.56 µM
OC[C@H]1O[C@@H](Oc2c[nH]c3ccccc23)[C@H](O)[C@@H](O)[C@@H]1O	cell viability, MTT	24 h	–	IC50	3350 µM
CCOC(=O)/C=C\C(=O)OCC	high content imaging, item: cell count	24 h, distribution mode 2	–	point of departure	263 µM
CCOC(=O)c1cc(F)cc(NC(=O)c2sc(Cl)cc2S(=O)(=O)N(C)c2ccc(OCC)c(OC)c2)c1	SRE promoter reporter, activator, luciferase reporter	–	–	EC50	0.13 µM
C#CCN1CCN(Cc2c(O)ccc3oc(-c4ccc(OC)cc4)c(C(=O)OCC)c23)CC1	cytotoxicity, resazurin	up to 200 µM, 18 h	–	IC50	not toxic
CCc1ccc(CCOc2ccc(CC3SC(=O)NC3=O)cc2)nc1 (centres unmarked)	MTT, item: MTT response	24 h, distribution mode 2	–	point of departure	46.8 µM

Compound	test	setting	how to read	measurement	result
CC(=O)c1nn(-c2ccc(C)cc2)/c(=N/N=C(\C)c2ccc(NC(=O)c3ccccc3)cc2)s1	MTT	2.5 µM	–	cytotoxicity	93.2%
CCOc1nc(-c2cccc(O)c2)cc(-c2cc3cc(Cl)ccc3nc2N2CCOCC2)c1C#N	MTT	–	baseline: WI-38 EC50 over HepG2 IC50	selectivity ratio	0.492
CC(=O)c1nn(-c2ccc(Cl)cc2)/c(=N/N=C(\C)c2ccc(NC(=O)c3ccc(Cl)cc3)cc2)s1	–	2.5 µM	–	viability	92%
COc1ccc(NC(=O)c2c(Nc3ccccc3)sc(C(=O)NN=Cc3ccc(OC)c(O)c3)c2NC(C)=O)cc1	ELISA	IC50, 24 h	–	Bcl-2 level	357 ± 21.3 pg/mL
CCn1c(C)c(N=Nc2ccc(C)cc2)sc1=NN=C(C)c1c(O)c2ccccc2oc1=O	cell growth, MTT	–	baseline: IC50 BJ-1 over HepG2	selectivity index	> 1.22
COc1ccc(-n2nc(C(C)=O)s/c2=N\N=C(/C)c2ccc(NC(=O)c3ccccc3)cc2)cc1	–	0.625 µM	–	toxicity	49.8%
NC[C@H](OCC(=O)N1CCC[C@H](C(=O)NCc2nc(-c3ccc(C(F)(F)F)cc3)cs2)C1)c1ccccc1	cytotoxicity	–	–	EC50	~20 µM
C[C@H]1O[C@@H](O[C@H]2CC[C@@]3(C)[C@@H](CC[C@]4(C)[C@@H]3C=CC3=C5CC(C)(C)CC[C@]5(CO)[C@@H](O)C[C@]34C)[C@]2(C)CO)[C@H](O)[C@@H](O[C@@H]2O[C@H](CO)[C@@H](O)[C@H](O)[C@H]2O)[C@H]1O	flow cytometry	concentration not given, high dose, together with: ethanol	baseline: control	ROS level	2.61 fold and 3.1 fold and 3.43 fold
Nc1ccn([C@H]2CC[C@@H](CO)O2)c(=O)n1	qPCR	2 µM, 10 days	baseline: untreated control	mitochondrial DNA content	56.5 ± 10.5%
CN1C(=O)C(=O)c2cc3c(c4c2c1cc1ccccc14)OCO3	cytotoxicity, MTT	50 µg/mL, 48 h	–	inhibition	< 50%
COc1ccc(-n2nc(C(C)=O)s/c2=N\N=C(/C)c2ccc(NC(=O)c3ccc(Cl)cc3)cc2)cc1	–	0.312 µM	–	toxicity	85.9%
CC(=NN=c1[nH]c(C)cs1)c1c(O)c2ccccc2oc1=O	cell growth, MTT	–	baseline: IC50 BJ-1 over HepG2	selectivity index	> 2.35
Nc1ncnc2c1ncn2CCN1C(=O)C(=O)c2cc(Cl)ccc21	cell growth, SRB	72 h	–	IC50	2.05 ± 1.25 µg/mL
COc1cc([C@@H]2c3cc4c(cc3[C@@H](O[C@@H]3O[C@@H]5CO[C@@H](C)O[C@H]5[C@H](O)[C@H]3O)[C@H]3COC(=O)[C@H]23)OCO4)cc(OC)c1O	MTT	–	baseline: IC50 MRC-5 over IC50 HepG2	selectivity index	0.3
NC(=S)N/N=C1\C(=O)N(CCn2cnc3c(N)ncnc32)c2ccc(F)cc21	cell growth, SRB	72 h	–	IC50	22.3 ± 6.44 µg/mL
COc1ccc(NC(=O)c2c(Nc3ccccc3)sc(C#N)c2NC(=O)CNc2ccc(Cl)cc2)cc1	ELISA	IC50, 24 h	–	active caspase-7 level	246 ± 18.6 pg/mL
c1cnc2c(c1)ccc1cccnc12	–	25 µg/mL	baseline: other treatment groups	IL-10 mRNA level	increased
CC(=O)c1nn(-c2ccccc2Cl)/c(=N/N=C(\C)c2ccc(NC(=O)c3ccccc3)cc2)s1	MTT	5 µM	–	cytotoxicity	93.9%
CCOC(=O)c1cc(Cl)cc(NC(=O)c2sc(Cl)cc2S(=O)(=O)N(C)c2ccc(OCC)c(OC)c2)c1	SRE promoter reporter, activator, luciferase reporter	–	–	EC50	0.19 µM

Some of these lines once more:
Compound	test	setting	how to read	measurement	result
CC(=O)c1sc(=NN=C(C)c2c(O)c3ccccc3oc2=O)[nH]c1C	cell growth, MTT	–	baseline: IC50 BJ-1 over HepG2	selectivity index	> 2.05
CCOc1nc(-c2cccc(O)c2)cc(-c2cc3cc(Cl)ccc3nc2N2CCOCC2)c1C#N	MTT	–	baseline: WI-38 EC50 over HepG2 IC50	selectivity ratio	0.492
CC(=O)Nc1ccc(/C(C)=N/N=c2\sc(C(C)=O)nn2-c2ccc(C)cc2)cc1	MTT	0.625 µM	–	cytotoxicity	0.182%
CCC1=C(C)/C(=C/NC23C[C@H]4C[C@@H](C2)C[C@](C)(C4)C3)N=C1c1ccc(C)[nH]1	–	–	baseline: HepG2 IC50 over P. falciparum D6 IC50	selectivity index	11500
CC(=NN=c1[nH]c(C)cs1)c1c(O)c2ccccc2oc1=O	cell growth, MTT	–	baseline: IC50 BJ-1 over HepG2	selectivity index	> 2.35
CC(=O)c1nn(-c2ccccc2Cl)/c(=N/N=C(\C)c2ccc(NC(=O)c3ccccc3)cc2)s1	MTT	5 µM	–	cytotoxicity	93.9%
